Experimental data of several laboratories.
Every numbered part comes from another study and shows a few of its results, in no order. pIC50: −log10 of the molar value.

Study 1
Target: Replicase polyprotein 1ab, polymerase (rep, Severe acute respiratory syndrome coronavirus 2, UniProt P0DTD1)
Read-out: enzyme activity
Action: inhibitor
Concentration: 20 µM
SMILES	inhibition
CC(C)(C)C(=O)C(Oc1ccc(Cl)cc1)n1ccnc1 (stereo not drawn)	-11.2%
CNCC[C@@H](Oc1ccccc1C)c1ccccc1	-9.16%
CN1C[C@H](C(=O)N[C@]2(C)O[C@@]3(O)[C@@H]4CCCN4C(=O)[C@H](Cc4ccccc4)N3C2=O)C[C@@H]2c3cccc4[nH]cc(c34)C[C@H]21	2.79%
CS(=O)(=O)N1CCN(Cc2cc3nc(-c4cccc5[nH]ncc45)nc(N4CCOCC4)c3s2)CC1	1.59%
CC(C)[C@@H](C)/C=C/[C@@H](C)[C@H]1CC[C@H]2/C(=C/C=C3\C[C@@H](O)CC[C@@H]3C)CCC[C@]12C	2.55%
CCCCC(=O)N(Cc1ccc(-c2ccccc2-c2nnn[nH]2)cc1)[C@H](C(=O)O)C(C)C	-12.6%
COc1ccc(S(=O)(=O)N2CCCN(S(=O)(=O)c3ccc(OC)c(OC)c3)CC2)cc1OC	1.11%
Cc1cc(NC(=O)Nc2ccc(F)c(F)c2)n(-c2ccccc2)n1	3.93%
CC(C)CC(N(C)C)C1(c2ccc(Cl)cc2)CCC1 (stereo not drawn)	-0.36%
N=C(CC(O)COc1ccccc1-c1ccccc1)N1CCCCC1 (stereo not drawn)	-6.32%
COc1cc(OC)c(OC)cc1C=O	1.73%
C[N+]1(C)[C@@H]2CC[C@H]1C[C@@H](OC(=O)C(CO)c1ccccc1)C2 (stereo partly drawn)	-11.3%
CC1(C)CCC(C)(C)c2cc(NC(=O)c3ccc(C(=O)O)cc3)ccc21	-4.97%
Cc1c[nH]c2ncnc(N3CCC(CN)(C(=O)Nc4cccc(OC(=O)N(C)C)c4)CC3)c12	-4.84%
N[C@@H]1C[C@H]1c1ccccc1 (racemic)	18.2%
NS(=O)(=O)c1cc2c(cc1C(F)(F)F)NC(Cc1ccccc1)NS2(=O)=O (stereo not drawn)	-4.36%
Clc1ccc(C(OCCN2CCCCC2)c2ccccc2)cc1 (stereo not drawn)	-3.14%
Fc1ccc(Cl)cc1-c1nc(Nc2ccncc2)c2nccnc2n1	-3.15%
CC(C)C[C@H](NC(=O)[C@H](CCc1ccccc1)NC(=O)CN1CCOCC1)C(=O)N[C@@H](Cc1ccccc1)C(=O)N[C@@H](CC(C)C)C(=O)[C@@]1(C)CO1	-0.18%
CC[N+](CC)(CCNC(=O)C(=O)NCC[N+](CC)(CC)Cc1ccccc1Cl)Cc1ccccc1Cl	0.2%
NC(=O)Nc1cc(-c2cccc(F)c2)sc1C(=O)N[C@H]1CCCNC1	-7.63%
COc1ccc(S(=O)(=O)Nc2cccnc2Nc2ccc(O)cc2)cc1	-5.73%
CC(C)c1nc(N(C)S(C)(=O)=O)nc(-c2ccc(F)cc2)c1/C=C/[C@@H](O)C[C@@H](O)CC(=O)O	3.55%
CCCCCCN(CCCCCC)C(=O)Cc1c(-c2ccc(F)cc2)[nH]c2ccccc12	-3.49%
Cc1cc(NC(=O)C(c2ccccc2)N2CCCc3ccccc32)no1 (stereo not drawn)	1.98%

Study 2
Target: Sal-like protein 4, full length isoform B (SALL4, Homo sapiens, UniProt Q9UJQ4-2, residues 1-616)
Method: universal PBM
Form: double-stranded DNA, one strand shown
Matrix: in vitro
Concentration: not given
Notes: 8-mer, flanks averaged, mean of replicates
Reading: higher = stronger binding
Sequence	E-score
ATTGTACC	0.134
ATGGTACC	-0.0871
CTAAAAAG	0.135
CGAAGATA	0.123
CGTCCGGA	-0.19
CAGTCTTA	0.0836
AGCTCTAG	-0.0451
CTACTTTC	0.0546

Study 3
Cell line: HEK-293T/ACE2
Concentration: 10 µM
Time: 16 h
Baseline: vehicle
SMILES	viability [%]
C[N+]1(C)CCCC(OC(=O)C(O)(c2ccccc2)c2ccccc2)C1 (stereo not drawn)	99.8
NCCCCCC(=O)O	101
C[C@H](CCC(=O)O)[C@H]1CC[C@H]2[C@@H]3[C@@H](O)C[C@@H]4C[C@H](O)CC[C@]4(C)[C@H]3CC[C@]12C	100
NC[C@H]1O[C@H](O[C@H]2[C@H](O)[C@@H](O[C@H]3O[C@H](CO)[C@@H](O)[C@H](N)[C@H]3O)[C@H](N)C[C@@H]2N)[C@H](O)[C@@H](O)[C@@H]1O	99.1
Nc1ccn([C@@H]2CS[C@H](CO)O2)c(=O)n1	99

Study 4
Target: Replicase polyprotein 1ab, main protease (rep, Severe acute respiratory syndrome coronavirus 2, UniProt P0DTD1)
Read-out: enzyme activity
Action: inhibitor
Notes: no DTT
SMILES	pIC50
O=[N+]([O-])c1ccc(O)c2ncccc12	< 4.70
N=c1c[n+](N2CCOCC2)[n-]o1	< 4.70
Nc1nc2c(ncn2[C@@H]2O[C@H](CO)[C@@H](O)[C@H]2O)c(=S)[nH]1	5.20
C[n+]1c2cc(N)ccc2cc2ccc(N)cc21.Nc1ccc2cc3ccc(N)cc3nc2c1	5.72
C=C1C(=O)O[C@H]2[C@H]1CC/C(C)=C/CC[C@@]1(C)O[C@@H]21	5.00

Study 5
Target: Interferon regulatory factor 5, full length, phosphomimetic (IRF5, Homo sapiens, UniProt Q13568-2, residues 1-514, S451D/S453D/S456D/S462D)
Method: protein-binding microarray
Form: double-stranded DNA, one strand shown
Matrix: in vitro
Concentration: 940 nM top
Notes: 60-bp whole probe
Added: salmon DNA 0.4 mg/ml
Baseline: random background probes
Reading: higher = stronger binding
Constant ends, left off below: GCCTAGCAC … GTCTTGATTCGCTTGACGCTGCTG
Sequence	fitted relative affinity [z-score]
TTAGATTTCAGTTCCTATTAGTGCTAG	1.15
TGAGGACTGCTTATCCTTTAGTGCTAG	-0.417
TTAGGTATCGAATATCGGTTAGTGCTA	3.66
TCATTATTTACTCTCTAACTGTGCTAG	1.55
TTAGATTTAAGACTGGATTAGTGCTAG	-0.423
GACTGTTTCGGACTGGGGACGTGCTAG	2.42
GACGGACTGTGGACTGGGGACGTGCTA	-0.189
TTAGGTCTCGGTATTGGTTAGTGCTAG	4.59

Excerpt of the above (study 1):
SMILES	inhibition
CCCCC(=O)N(Cc1ccc(-c2ccccc2-c2nnn[nH]2)cc1)[C@H](C(=O)O)C(C)C	-12.6%
CC(C)CC(N(C)C)C1(c2ccc(Cl)cc2)CCC1 (stereo not drawn)	-0.36%
CC(C)c1nc(N(C)S(C)(=O)=O)nc(-c2ccc(F)cc2)c1/C=C/[C@@H](O)C[C@@H](O)CC(=O)O	3.55%
CC(C)(C)C(=O)C(Oc1ccc(Cl)cc1)n1ccnc1 (stereo not drawn)	-11.2%
